Results gathered from unrelated publications.
± marks the error that the study gave. ≈ marks a conversion by molar mass, not a printed value.
Organism: Pseudomonas aeruginosa

The biofilm dispersal of `Polymyxin B` is reported as 100% (PAO1; 32 µg/mL, 24 h, 37 °C).
With `O=C(Nc1ccc(F)cc1)c1cc(Cl)ccc1O` the MIC was > 64 µg/mL (microbial growth, broth dilution; ATCC27853).
The FIC index of `CO/N=C(\C(=O)N[C@@H]1C(=O)N2C(C(=O)O)=C(CSc3nc(=O)c(=O)[nH]n3C)CS[C@H]12)c1csc(N)n1` is reported as 0.25 (checkerboard broth microdilution; clinical isolate 17-99; together with: magainin II).
`CNC(C)C1CCC(N)C(OC2C(N)CC(N)C(OC3OCC(C)(O)C(NC)C3O)C2O)O1` (centres unmarked) — result for “inhibition zone diameter”: 19 mm (IFO 3448; 100 µg/disc, 24 h).
`O=C(Nc1cccc(C(F)(F)F)c1)c1cc(Cl)ccc1O` gave an MIC of > 64 µg/mL (microbial growth, broth dilution; ATCC27853).
`O=c1c(O)c(-c2ccc(O)cc2)oc2cc(O)cc(O)c12` has an inhibition of > 50% (microbial growth; ATCC15692 PAO1; 11.1 µM).
For `TRSSRAGLQWPVGRVHRLLRK-NH2 (C-amide)`, the MIC50 was > 25.9 µg/mL (bacterial growth, broth microdilution; peptide, PAO1, Mueller-Hinton broth; overnight, 37 °C).
The FIC index of `C[C@@H](O)[C@H]1C(=O)N2C(C(=O)O)=C(S[C@@H]3CN[C@H](C(=O)N(C)C)C3)[C@H](C)[C@H]12` is reported as 0.312 (checkerboard broth microdilution; clinical isolate 17-99; together with: magainin II).
With `CC(=O)N[C@@H](C)C(=O)N[C@@H](CCC(N)=O)C(=O)N[C@@H](CCCCN)C(=O)N[C@@H](CC(C)C)C(=O)N[C@@H](CC(C)C)C(=O)N[C@@H](CCCCN)C(=O)N[C@@H](CCCCN)C(=O)N[C@@H](Cc1ccccc1)C(=O)N[C@@H](CO)C(=O)N[C@@H](CC(C)C)C(=O)N[C@@H](CC(C)C)C(=O)N[C@@H](CCCCN)C(=O)N1CCC[C@H]1C(=O)N[C@@H](Cc1c[nH]c2ccccc12)C(=O)N[C@@H](C)C(=O)O` the inhibition was 54% (spermidine uptake; PA14; 10 µM, 45 min pretreatment, 35 °C, together with: [14C]spermidine, 15 min).
For `NS(=O)(=O)c1ccc(NC2=NC(=O)/C(=C\c3ccc([N+](=O)[O-])cc3)S2)cc1`, the inhibition was 73.4% (microbial growth; ATCC10145; 50 µg/mL, 24 h).
For `CC[C@H](C)[C@H](NC(=O)CNC(=O)[C@H](CCC(=O)O)NC(=O)[C@H](CO)NC(=O)[C@@H](NC(=O)[C@H](CCCNC(=N)N)NC(=O)[C@H](CCCCN)NC(=O)[C@H](CCCCN)NC(=O)[C@H](C)NC(=O)[C@H](CO)NC(=O)[C@H](CC(N)=O)NC(=O)[C@H](CCC(=O)O)NC(=O)[C@H](CC(C)C)NC(=O)[C@H](CCCCN)NC(=O)[C@H](CCCCN)NC(=O)[C@H](C)NC(=O)[C@@H](NC(=O)[C@H](CCCCN)NC(=O)[C@H](CO)NC(=O)[C@H](CC(C)C)NC(=O)[C@H](Cc1c[nH]c2ccccc12)NC(=O)[C@@H](N)CO)[C@@H](C)O)[C@@H](C)CC)C(=O)N[C@@H](C)C(=O)N[C@H](C(=O)N[C@@H](C)C(=O)N[C@H](C(=O)N[C@@H](CCC(N)=O)C(=O)NCC(=O)NCC(=O)N1CCC[C@H]1C(=O)N[C@@H](CCCNC(=N)N)C(=O)O)[C@@H](C)CC)[C@@H](C)CC`, the MIC50 was 8 µg/mL (≈ 2.4 µM) (broth microdilution; 18 h, 10 clinical isolates).
`CC[C@@H](C)[C@@H](NC(=O)[C@@H](C)NC(=O)[C@@H](CCCNC(=N)N)NC(=O)[C@@H](Cc1c[nH]c2ccccc12)NC(=O)[C@@H](CCC(N)=O)NC(=O)[C@H](N)C(C)C)C(=O)N[C@H](CCCNC(=N)N)C(=O)N[C@@H](C(=O)N[C@H](CCCNC(=N)N)C(=O)N[C@@H](C(=O)N[C@@H](C(=O)N[C@H](CCCNC(=N)N)C(N)=O)[C@H](C)CC)C(C)C)C(C)C` gave a survival of 90 ± 6% (PAO1, Galleria mellonella larvae; proleg injection, 20 µg per larva, 24 h post infection, 37 °C, dosed 1 h after infection).
With `CCN1CCN(C(=O)N[C@@H](C(=O)N[C@@H]2C(=O)N3[C@@H]2SC(C)(C)[C@@H]3C(=O)O)c2ccccc2)C(=O)C1=O` the FIC index was 0.25 (checkerboard broth microdilution; clinical isolate 17-99; together with: magainin II).
`CCc1cc(CC)n(C(N)=S)n1` gave an MBC of > 1000 µg/mL (broth microdilution, agar subculture; ATCC 25619; 24 h).

Repeated from above:
With `CC(=O)N[C@@H](C)C(=O)N[C@@H](CCC(N)=O)C(=O)N[C@@H](CCCCN)C(=O)N[C@@H](CC(C)C)C(=O)N[C@@H](CC(C)C)C(=O)N[C@@H](CCCCN)C(=O)N[C@@H](CCCCN)C(=O)N[C@@H](Cc1ccccc1)C(=O)N[C@@H](CO)C(=O)N[C@@H](CC(C)C)C(=O)N[C@@H](CC(C)C)C(=O)N[C@@H](CCCCN)C(=O)N1CCC[C@H]1C(=O)N[C@@H](Cc1c[nH]c2ccccc12)C(=O)N[C@@H](C)C(=O)O` the inhibition was 54% (spermidine uptake; PA14; 10 µM, 45 min pretreatment, 35 °C, together with: [14C]spermidine, 15 min).
`O=C(Nc1cccc(C(F)(F)F)c1)c1cc(Cl)ccc1O` gave an MIC of > 64 µg/mL (microbial growth, broth dilution; ATCC27853).
